# Assay results pooled from the literature.
# A part holds a random share of what one study measured.

# Block 1 — method: RNA Bind-n-Seq; molecule type: RNA; medium: in vitro; tested at: 365 nM; baseline: no-protein control; reading: higher = stronger binding
# Target: RNA binding protein fox-1 homolog 2, RRM domain, GST-SBP tag (RBFOX2, Homo sapiens, UniProt O43251-10, residues 100-194)
# Notes: natural RNA segment, single round, ends assumed
# All sequences stand within: GGGAGUUCUACAGUCCGACGAUC … UGGAAUUCUCGGGUGCCAA
# Construct (chain): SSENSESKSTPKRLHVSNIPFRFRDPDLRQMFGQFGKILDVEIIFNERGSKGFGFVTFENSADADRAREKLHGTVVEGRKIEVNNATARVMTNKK
Strand,RBNS enrichment (R)
GCAGAUUGGGGCCAGGGAGUCAGCAAGGCACCCCAGCUCUGUGAUGUGACUUUGGGCGAGUCUCAGUGCCACUUGGUCCCCAGCCAUGGACUCUAUACAGUGAGGGCCAC,0.232
GAGGGGGCAACGGUGUGAUCCAGCUGGCUCAUCCCAGCCCAGGUGGGCCAAUUAUUCAAUUUUCAAGAAUUUUGUUGCAAGCCAGUUGUCAAACACAGCCAUUAUAAUUA,0.396
AAGACCAAGGCAGAUAGAUGCAGCUAUGUGUACAUUGUAUAUUUUUGUGAACUUCUCAAGCACGCACUCCCGUUUCCCUCUGCUUUGCAGAGGUUUUGAUGUAUCCCUGC,1.13
AAAGGUUUCCAGGACUGAAACUUUGAUUUUCCGGGAUAUGUUAAAUGGUACAGCCACUAAGUAUCACCAGAAAACCAGAAGCCCAGGAUCUUCUGCCUCCGCCAGCCUGU,0.321
CCACCACAACCAUGAGCCUUUCUUCAGUUUGCUCGGGUUGACGCGGGCUGCAGAGCAGCGUCUAGUGGACAUUCCGAGGCCAGCUCUUGGGACUGUGUAGCCUCUGCCUC,0.274
UUAAAGUCUACCUUUUAACAAUCUUUACCCCAAACCUAAAGAUUCUAGGGGUCACUUAUCUCUAUUACGUAAUCUAACUGGAAUAAUUUCCUAGAAUUCUUACUAGUGAA,0.524
AACAAUGUGCCUACAUUACCAGCUGGCUUCAGUGAUUCCUCUGUGUCCCUUUUUGGUUUCUGGAAAGAUUCUUUGUCAACAUUAGUAACUGAUACAUAGAACCAAGGAGC,0.29
CUUGUCGUGCUUCAAUGCAUGCCAUUUGUCACUUACCAUACUUCACCAUGGCCGAGCUUCAUGUCACAUGGCCUGGCGAUUGUGCUUGUUCACACUGGGGCCAGGAUUUU,0.47
CUCUGUGCCCAAGCUGACACAGAACCCCAAAUGUGUGGGAGGAAUGGACCCCAGAGCUUUGGGCCCAGGGUGAGGGCAAGGGGAACUCUUCAGCCCCUUGCCUAGAGAGA,0.667
UUUCUUGUUGGCCAUUUCUGUAUUGCUGGCAUCUGUGCUAAGCUUUACAGUGGCAAAAAUAAUGACAUGUAGCAAAGAUUUUCAAACAAAAUAUUUUUUCCUUUUGUAAA,0.405
GGAAACGGAAUAAAAAUCUCUUAGAAACUUUUGCAGAUAAUUUGAUGUUGGGCAAAUAUAUAUAAUUAUUUUUUCUGGUAAAUUCAUGUCAGUAAUUUGUUGAAGAGUUA,0.957
GACCUCUUAGGCUACAAUAAACUGUACCAAACUAAACUGACAGUCCUUCGAUAAUAUGAAACAUUAAUUUACAAGGACCCGUUAGGGCUUCAAUGAUGCUGAGUCUGGAA,0.277

# Block 2 — method: protein-binding microarray; molecule type: double-stranded DNA, one strand shown; medium: in vitro; tested at: 2540 nM top; notes: 60-bp whole probe; with: salmon DNA 0.4 mg/ml; baseline: random background probes; reading: higher = stronger binding; all sequences stand within: GCCTAGCAC … GTCTTGATTCGCTTGACGCTGCTG
# Target: Interferon regulatory factor 3, full length, phosphomimetic (IRF3, Homo sapiens, UniProt Q14653, residues 1-427, S386D/S396D/S398D/S402D/T404D/S405D)
# UniProt Q14653, sequence (whole entry, unmodified, looked up): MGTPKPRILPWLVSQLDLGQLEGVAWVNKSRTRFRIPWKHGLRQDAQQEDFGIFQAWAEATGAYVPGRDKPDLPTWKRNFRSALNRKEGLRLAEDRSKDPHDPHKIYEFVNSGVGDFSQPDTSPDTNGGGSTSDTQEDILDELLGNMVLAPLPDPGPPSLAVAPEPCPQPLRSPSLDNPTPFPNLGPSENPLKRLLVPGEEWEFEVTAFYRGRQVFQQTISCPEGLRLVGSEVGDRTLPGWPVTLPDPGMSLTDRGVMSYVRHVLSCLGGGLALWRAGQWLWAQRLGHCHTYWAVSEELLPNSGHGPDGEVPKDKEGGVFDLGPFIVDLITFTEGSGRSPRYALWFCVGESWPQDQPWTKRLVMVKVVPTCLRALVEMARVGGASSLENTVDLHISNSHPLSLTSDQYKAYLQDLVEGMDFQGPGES
Strand,fitted relative affinity
GACGGTCTCGTACTGCTGACGTGCTAG,0.199 z-score
TTAGGTAGCCTTCTCCTTTAGTGCTAG,2.46 z-score
TTAAGTTTCGGTATCGGTTAGTGCTAG,9.56 z-score
TTAGGACTGGGTATCCGTTAGTGCTAG,0.237 z-score
ACCCATCTCAAGTAGCCTAGCGTGCTA,1.6 z-score
TCAGGTATAGCACTAAGACTGTGCTAG,-0.531 z-score
TTAGAGCTGAGTCTCGATTAGTGCTAG,-0.439 z-score
TCACCTCTGTAAGTCAGACTGTGCTAG,-0.0175 z-score
GACAGACTGGGTTTCGGGACGTGCTAG,1.41 z-score
GTAGGACTGGACTTTCGGTTAGTGCTA,0.927 z-score
GACGATTTCAGCCTGGAGACGTGCTAG,0.471 z-score
TCAGGTCTCCCTTGAGGACTGTGCTAG,0.956 z-score
AGACATTCTTTCAGTTGGAAGTGCTAG,0.52 z-score
GACGATATCAGTATCGAGAGGTGCTAG,0.987 z-score
TAAGATATCAGACTGGATTAGTGCTAG,0.134 z-score
TCATCTCTACATGTGTTACTGTGCTAG,0.991 z-score

# Block 3 — method: protein binding microarray; molecule type: double-stranded DNA, one strand shown; medium: in vitro; tested at: not given; baseline: not given; reading: higher = stronger binding
# Target: Histone acetyltransferase KAT6A, both winged helices, GST fusion (KAT6A, Homo sapiens, UniProt Q92794, residues 1-181)
# Notes: 8-mer, flanks averaged, mean of 2 arrays, mostly near background
# Target sequence (chain): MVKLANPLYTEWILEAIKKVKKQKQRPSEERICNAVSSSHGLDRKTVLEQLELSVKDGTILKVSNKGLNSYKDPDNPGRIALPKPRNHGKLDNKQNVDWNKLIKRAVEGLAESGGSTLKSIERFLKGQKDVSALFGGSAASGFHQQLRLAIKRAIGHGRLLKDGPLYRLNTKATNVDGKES
Strand,E-score
ACGTTTAG,-0.00843
AGCGTATC,0.103
ACGTTTTA,-0.0708
ATCATGCC,-0.0536
GCTTCCGA,0.167
ACAGCAGT,-0.0745
GAGCTACC,-0.033
CCAAGTAG,-0.304
GTCCTTTA,-0.162
GTTGACAA,0.0192
GGAACGAA,0.0653
CGGAACCG,0.248
CATCTAAA,-0.0897
ACAAAATG,-0.0574
GCTCCCTA,-0.0893
AGAGGAGA,-0.125
AAATTTGA,-0.0572
AACTCCCG,0.179
GAAGATTA,0.0161
ACATTATC,0.00946
GCGCTCAA,0.252

# Block 4 — method: RNA Bind-n-Seq; molecule type: RNA; medium: in vitro; tested at: 1 µM; notes: whole 134-nt RNA, ends assumed; with: 150 mM KCl; baseline: input library; reading: higher = stronger binding
# Target: Ras GTPase-activating protein-binding protein 1, C-terminal RGG region (G3BP1, Homo sapiens, UniProt Q13283)
# UniProt Q13283, sequence (whole entry, looked up): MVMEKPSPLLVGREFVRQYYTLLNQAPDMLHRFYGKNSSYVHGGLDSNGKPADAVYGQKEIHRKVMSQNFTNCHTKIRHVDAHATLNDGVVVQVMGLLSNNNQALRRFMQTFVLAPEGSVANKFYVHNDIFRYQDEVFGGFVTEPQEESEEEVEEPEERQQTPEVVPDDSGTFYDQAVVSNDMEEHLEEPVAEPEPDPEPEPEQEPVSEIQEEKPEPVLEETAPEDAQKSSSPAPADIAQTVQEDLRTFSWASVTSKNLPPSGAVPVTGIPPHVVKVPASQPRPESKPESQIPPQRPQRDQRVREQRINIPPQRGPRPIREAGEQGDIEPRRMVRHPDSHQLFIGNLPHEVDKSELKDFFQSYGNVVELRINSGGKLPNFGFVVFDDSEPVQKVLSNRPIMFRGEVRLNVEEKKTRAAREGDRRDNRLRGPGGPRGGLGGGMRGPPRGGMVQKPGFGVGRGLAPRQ
# All sequences stand within: GGGAGUUCUACAGUCCGACGAUC … UGGAAUUCUCGGGUGUCAAGG
Strand,log2 enrichment
AGUCCUGUGCUACACAUCGUAUGUACCGAAUCGGAAAAAGGAAAAAGGUUUUUUUGGAAAGUAUUAUGUUACGCCGUUCGGAUCUGCACU,-2.4
UCCUGUGCUACACAUCGUAUGUACCGAAUCGGGUUUUUGGGAAAAAAAGGGAAAAAGGGAAAGUAUUAUGUUACGCCGUUCGGAUCUGCA,-0.896
AGUCCUGUGCUACACAUCGUAUGUACCGAAUCGGGGUGGGGUGGGGAAAAAAAGGGGAAAGUAUUAUGUUACGCCGUUCGGAUCUGCACU,1.21
UCAUCCUUUUUAAAUUUUUUUUUUUUUUUUGAGACGGUCUCACUCUCACCCAGGCUGGAUUGCAGUGGUGUGAUCUCGACCAACUGCAAC,-1.57
AGUCCUGUGCUACACAUCGUAUGUACCGAAUCGGGAAAAGGGGAAAAGGGGAAAAGGGAAAGUAUUAUGUUACGCCGUUCGGAUCUGCAC,0.621
AAGUCCUGUGCUACACAUCGUAUGUACCGAAUCGGAAAAGGGGAAAAGGGGAAAAGGAAAGUAUUAUGUUACGCCGUUCGGAUCUGCACU,-1.14
GUCCUGUGCUACACAUCGUAUGUACCGAAUCAAACCCCCAAACCCCCCCAAAUUUAAAAAAGUAUUAUGUUACGCCGUUCGGAUCUGCAC,-0.826
UCAAGUCCUGUGCUACACAUCGUAUGUACCGAAUCGGUUUGGGGUUUGGUUUGGGAAAGUAUUAUGUUACGCCGUUCGGAUCUGCACUUC,-0.988
GCAGGAAGUAAAAACAAAUGGAAAUGCUUCGGAUAGUGGCAGGGGUGGGGGUUGCUAACGAAAGGGUGGGAUGGGAGUGGGUAAAGAGUU,1.72
UUCCUCAAGUCCUGUGCUACACAUCGUAUGUACCGAAUCGGAGGAGGAGGGAAAGUAUUAUGUUACGCCGUUCGGAUCUGCACUUCCAGC,-1.3
CACAGACAACACGCACCCACACAGACACAGAAGGAAGGGGUUGGGAUGGGGACAGGGUGCACAGCAGGGCGGGGUAGGACCCCAGCCCCU,-0.13
CCUGUGCUACACAUCGUAUGUACCGAAUCAAAUUUUUUUAAAUUUUUUUAAAUUUUUAAAAAAGUAUUAUGUUACGCCGUUCGGAUCUGC,-2.66
UCCUGUGCUACACAUCGUAUGUACCGAAUCAAACCCCCAAAUUUUUUUAAACCCCCAAAAAAGUAUUAUGUUACGCCGUUCGGAUCUGCA,-1
CUCAAGUCCUGUGCUACACAUCGUAUGUACCGAAUCGGUUUGGAAAGGAAAGGAAAGUAUUAUGUUACGCCGUUCGGAUCUGCACUUCCA,-1.2

# Block 5 — method: RNA Bind-n-Seq; molecule type: RNA; medium: in vitro; tested at: 20 nM; notes: 6-mer, flanks averaged, single round; with: 150 mM KCl; baseline: input library; reading: higher = stronger binding
# Target: TAR DNA-binding protein 43, full length, His tag (TARDBP, Homo sapiens, UniProt Q13148, residues 1-414)
Strand,6-mer enrichment (R)
GACCAC,0.725
UUACAU,0.574
GUUAAG,0.879
AAGUUG,0.754
CGUCAG,0.834
AGCUCC,0.662
ACCAAU,0.666
AAAGUC,0.564
AAGAGG,1.9
GGGCCG,4.03
UGCCUU,0.687
UUCACA,0.56
CGUGGU,1.31
CGGGUU,1.64
CAGCAU,0.667
GCCCAG,0.908
UAGGCC,0.792

# Repeated from above (block 4):
Strand,log2 enrichment
UCCUGUGCUACACAUCGUAUGUACCGAAUCAAACCCCCAAAUUUUUUUAAACCCCCAAAAAAGUAUUAUGUUACGCCGUUCGGAUCUGCA,-1
AGUCCUGUGCUACACAUCGUAUGUACCGAAUCGGAAAAAGGAAAAAGGUUUUUUUGGAAAGUAUUAUGUUACGCCGUUCGGAUCUGCACU,-2.4
CUCAAGUCCUGUGCUACACAUCGUAUGUACCGAAUCGGUUUGGAAAGGAAAGGAAAGUAUUAUGUUACGCCGUUCGGAUCUGCACUUCCA,-1.2
UCCUGUGCUACACAUCGUAUGUACCGAAUCGGGUUUUUGGGAAAAAAAGGGAAAAAGGGAAAGUAUUAUGUUACGCCGUUCGGAUCUGCA,-0.896
